Experimental data collected from several papers.
Every numbered part comes from another study and shows a few of its results, in no order. ± gives the spread as reported.
Chain of UniProt Q15759 (whole entry, looked up): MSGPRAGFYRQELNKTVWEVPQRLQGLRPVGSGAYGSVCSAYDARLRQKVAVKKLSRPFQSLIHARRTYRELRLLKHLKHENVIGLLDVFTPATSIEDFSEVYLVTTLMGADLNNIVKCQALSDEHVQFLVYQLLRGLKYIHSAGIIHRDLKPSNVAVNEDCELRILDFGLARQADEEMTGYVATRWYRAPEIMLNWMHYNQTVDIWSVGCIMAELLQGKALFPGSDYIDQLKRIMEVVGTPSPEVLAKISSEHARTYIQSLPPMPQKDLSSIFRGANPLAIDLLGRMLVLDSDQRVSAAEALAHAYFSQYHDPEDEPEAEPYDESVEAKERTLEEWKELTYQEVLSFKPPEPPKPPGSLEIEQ
Chain of UniProt Q02750 (whole entry, looked up): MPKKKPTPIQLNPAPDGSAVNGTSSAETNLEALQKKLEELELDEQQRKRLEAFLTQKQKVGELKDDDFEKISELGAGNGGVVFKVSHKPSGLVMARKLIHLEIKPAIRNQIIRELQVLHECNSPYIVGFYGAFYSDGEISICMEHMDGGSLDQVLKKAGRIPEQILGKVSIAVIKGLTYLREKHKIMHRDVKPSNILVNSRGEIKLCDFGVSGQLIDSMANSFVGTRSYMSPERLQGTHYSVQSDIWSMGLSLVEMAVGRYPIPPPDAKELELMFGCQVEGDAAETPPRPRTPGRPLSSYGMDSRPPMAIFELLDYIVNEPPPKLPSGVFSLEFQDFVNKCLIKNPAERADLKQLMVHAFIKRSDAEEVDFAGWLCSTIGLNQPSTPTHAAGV
Chain of UniProt Q9H4B4 (whole entry, looked up): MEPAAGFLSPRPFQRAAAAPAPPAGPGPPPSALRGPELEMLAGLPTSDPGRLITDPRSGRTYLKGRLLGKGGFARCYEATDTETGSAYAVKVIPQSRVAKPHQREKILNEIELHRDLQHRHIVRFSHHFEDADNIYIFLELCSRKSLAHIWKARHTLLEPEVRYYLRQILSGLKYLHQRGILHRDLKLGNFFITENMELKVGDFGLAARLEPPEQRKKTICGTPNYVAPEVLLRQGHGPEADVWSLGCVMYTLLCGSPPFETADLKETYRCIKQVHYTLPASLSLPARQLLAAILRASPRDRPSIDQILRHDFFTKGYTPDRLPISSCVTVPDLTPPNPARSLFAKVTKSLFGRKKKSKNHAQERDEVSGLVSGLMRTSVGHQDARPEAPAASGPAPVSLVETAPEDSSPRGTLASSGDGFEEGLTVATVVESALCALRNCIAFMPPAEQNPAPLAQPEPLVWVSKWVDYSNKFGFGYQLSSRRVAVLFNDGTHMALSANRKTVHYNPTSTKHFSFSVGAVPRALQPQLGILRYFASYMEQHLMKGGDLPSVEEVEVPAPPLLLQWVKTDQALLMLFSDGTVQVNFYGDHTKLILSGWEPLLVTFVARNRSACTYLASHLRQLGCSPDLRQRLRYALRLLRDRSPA
Chain of UniProt P42681 (whole entry, looked up): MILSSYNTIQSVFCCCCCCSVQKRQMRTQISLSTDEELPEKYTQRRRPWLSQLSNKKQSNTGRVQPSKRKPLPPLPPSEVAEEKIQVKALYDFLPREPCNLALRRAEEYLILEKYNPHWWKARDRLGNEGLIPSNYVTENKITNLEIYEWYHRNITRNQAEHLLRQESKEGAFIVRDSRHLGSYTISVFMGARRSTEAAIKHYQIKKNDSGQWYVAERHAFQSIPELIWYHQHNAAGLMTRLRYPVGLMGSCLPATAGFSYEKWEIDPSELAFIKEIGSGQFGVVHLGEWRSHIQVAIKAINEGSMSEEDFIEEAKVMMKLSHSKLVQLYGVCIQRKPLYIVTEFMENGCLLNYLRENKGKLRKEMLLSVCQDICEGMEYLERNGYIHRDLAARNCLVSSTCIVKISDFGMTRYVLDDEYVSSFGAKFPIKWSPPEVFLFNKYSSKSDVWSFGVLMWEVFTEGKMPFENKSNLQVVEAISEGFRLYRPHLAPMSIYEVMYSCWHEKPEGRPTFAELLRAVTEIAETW
Chain of UniProt Q9Y5S2 (whole entry, looked up): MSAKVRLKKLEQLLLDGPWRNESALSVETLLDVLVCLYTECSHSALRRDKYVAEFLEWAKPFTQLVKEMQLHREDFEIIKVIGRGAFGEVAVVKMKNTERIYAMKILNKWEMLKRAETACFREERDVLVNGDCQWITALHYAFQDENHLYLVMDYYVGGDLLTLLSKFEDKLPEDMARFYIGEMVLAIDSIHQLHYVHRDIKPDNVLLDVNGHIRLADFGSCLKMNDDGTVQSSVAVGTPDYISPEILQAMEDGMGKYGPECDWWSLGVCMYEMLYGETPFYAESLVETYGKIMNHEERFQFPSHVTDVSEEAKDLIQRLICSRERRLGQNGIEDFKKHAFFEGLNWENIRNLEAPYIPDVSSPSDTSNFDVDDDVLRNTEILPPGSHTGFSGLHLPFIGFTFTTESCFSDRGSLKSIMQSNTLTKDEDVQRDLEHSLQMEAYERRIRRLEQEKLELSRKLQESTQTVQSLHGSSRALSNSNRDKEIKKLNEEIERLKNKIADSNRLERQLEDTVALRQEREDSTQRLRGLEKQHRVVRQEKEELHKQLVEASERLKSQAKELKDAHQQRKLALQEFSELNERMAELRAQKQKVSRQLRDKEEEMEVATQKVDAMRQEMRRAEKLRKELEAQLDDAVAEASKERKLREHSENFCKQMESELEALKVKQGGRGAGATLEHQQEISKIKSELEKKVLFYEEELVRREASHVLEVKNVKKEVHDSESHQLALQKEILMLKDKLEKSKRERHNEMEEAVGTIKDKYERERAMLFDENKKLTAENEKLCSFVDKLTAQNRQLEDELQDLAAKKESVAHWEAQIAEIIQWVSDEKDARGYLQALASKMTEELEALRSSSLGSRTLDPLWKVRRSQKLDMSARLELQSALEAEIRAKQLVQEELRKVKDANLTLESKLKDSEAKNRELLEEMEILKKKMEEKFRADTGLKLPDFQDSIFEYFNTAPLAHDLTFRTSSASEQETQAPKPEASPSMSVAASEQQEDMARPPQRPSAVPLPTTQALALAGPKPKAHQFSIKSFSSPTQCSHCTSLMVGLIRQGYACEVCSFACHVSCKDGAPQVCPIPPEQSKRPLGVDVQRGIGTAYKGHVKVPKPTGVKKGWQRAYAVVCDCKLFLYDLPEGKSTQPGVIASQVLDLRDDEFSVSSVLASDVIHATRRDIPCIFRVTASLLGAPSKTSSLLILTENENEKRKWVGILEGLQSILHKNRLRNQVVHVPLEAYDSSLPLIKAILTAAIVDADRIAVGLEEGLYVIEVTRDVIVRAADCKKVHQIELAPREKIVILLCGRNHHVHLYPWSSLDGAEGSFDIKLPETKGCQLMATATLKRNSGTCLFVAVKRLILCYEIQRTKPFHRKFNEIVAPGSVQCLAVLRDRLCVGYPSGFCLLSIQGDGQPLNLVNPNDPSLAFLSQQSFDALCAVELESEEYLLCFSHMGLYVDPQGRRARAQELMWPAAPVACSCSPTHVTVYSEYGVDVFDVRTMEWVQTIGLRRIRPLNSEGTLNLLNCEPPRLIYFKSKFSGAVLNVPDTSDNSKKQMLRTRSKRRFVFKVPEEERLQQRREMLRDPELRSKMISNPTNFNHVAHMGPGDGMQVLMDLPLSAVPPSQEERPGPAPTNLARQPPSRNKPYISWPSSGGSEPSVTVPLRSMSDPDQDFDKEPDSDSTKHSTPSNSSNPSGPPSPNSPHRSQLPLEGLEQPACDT
Chain of UniProt O75914 (whole entry, looked up): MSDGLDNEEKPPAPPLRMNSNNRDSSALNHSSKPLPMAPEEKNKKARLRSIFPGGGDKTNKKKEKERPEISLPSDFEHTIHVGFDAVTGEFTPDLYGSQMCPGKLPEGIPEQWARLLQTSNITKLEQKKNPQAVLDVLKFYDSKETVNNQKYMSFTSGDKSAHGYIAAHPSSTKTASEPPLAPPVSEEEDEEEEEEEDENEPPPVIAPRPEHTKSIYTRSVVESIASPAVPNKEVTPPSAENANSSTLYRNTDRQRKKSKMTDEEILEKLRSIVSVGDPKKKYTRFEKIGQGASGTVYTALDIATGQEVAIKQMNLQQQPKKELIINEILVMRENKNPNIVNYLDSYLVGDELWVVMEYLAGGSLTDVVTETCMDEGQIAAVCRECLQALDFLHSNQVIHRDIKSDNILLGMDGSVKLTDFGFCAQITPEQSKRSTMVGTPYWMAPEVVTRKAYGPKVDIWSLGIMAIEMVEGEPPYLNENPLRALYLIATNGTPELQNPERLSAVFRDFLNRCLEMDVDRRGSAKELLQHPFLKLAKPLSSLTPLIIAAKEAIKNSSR
Chain of UniProt P06493 (whole entry, looked up): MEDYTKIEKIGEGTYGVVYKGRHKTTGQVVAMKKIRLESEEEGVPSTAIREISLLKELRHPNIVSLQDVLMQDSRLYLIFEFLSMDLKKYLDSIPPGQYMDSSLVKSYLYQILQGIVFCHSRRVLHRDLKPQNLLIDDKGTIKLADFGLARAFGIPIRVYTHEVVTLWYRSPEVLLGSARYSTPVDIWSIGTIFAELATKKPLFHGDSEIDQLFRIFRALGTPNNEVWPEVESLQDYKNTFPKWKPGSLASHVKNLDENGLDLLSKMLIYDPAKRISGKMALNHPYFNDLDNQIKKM
Chain of UniProt P28482 (whole entry, looked up): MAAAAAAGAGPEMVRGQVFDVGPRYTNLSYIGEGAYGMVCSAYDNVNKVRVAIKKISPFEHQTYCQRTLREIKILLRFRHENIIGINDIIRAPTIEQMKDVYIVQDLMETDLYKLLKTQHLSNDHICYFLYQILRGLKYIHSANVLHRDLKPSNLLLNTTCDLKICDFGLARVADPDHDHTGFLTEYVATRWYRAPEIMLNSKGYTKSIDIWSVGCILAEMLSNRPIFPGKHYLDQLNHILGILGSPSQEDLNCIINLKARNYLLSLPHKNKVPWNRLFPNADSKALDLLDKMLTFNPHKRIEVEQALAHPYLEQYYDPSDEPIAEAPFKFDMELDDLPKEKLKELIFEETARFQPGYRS

Study 1
Cell line: A-375
Concentration: 100 µM
Time: 36 h
Quantity: viability
Structure (SMILES) = NCc1ccc(C(=O)O)cc1; result = 105%
Structure (SMILES) = COc1ncnc(NS(=O)(=O)c2ccc(N)cc2)c1OC; result = 109%
Structure (SMILES) = CCOC(=O)c1c(C)n(C)c2ccc(O)cc12; result = 64.5%
Structure (SMILES) = C[C@]12CC[C@@H]3c4ccc(OC(=O)c5ccccc5)cc4CC[C@H]3[C@@H]1CC[C@@H]2O; result = -3.38%
Structure (SMILES) = CCN(CC)CCNC(=O)c1ccc(NC(C)=O)cc1; result = 115%
Structure (SMILES) = CC(C(=O)O)c1ccc(-c2ccccc2)c(F)c1 (centres unmarked); result = 117%

Study 2
SMILES: COc1ccc(S(=O)(=O)N(CCO)c2ccccc2CN(C)CC=Cc2ccc(Cl)cc2)cc1
Effect on: enzyme activity
Mode: inhibitor
Concentration: 0.5 µM
Relative to: control
Quantity: remaining activity
target = Serine/threonine-protein kinase PLK3 (PLK3, Homo sapiens, UniProt Q9H4B4); result = 99.4%
target = Serine/threonine-protein kinase DCLK2 (DCLK2, Homo sapiens, UniProt Q8N568); result = 99.1%
target = Serine/threonine-protein kinase MRCK beta (CDC42BPB, Homo sapiens, UniProt Q9Y5S2); result = 101%
target = Tyrosine-protein kinase TXK (TXK, Homo sapiens, UniProt P42681); result = 95.6%
target = Mitogen-activated protein kinase 1 (MAPK1, Homo sapiens, UniProt P28482); result = 97%
target = Serine/threonine-protein kinase MARK2 (MARK2, Homo sapiens, UniProt Q7KZI7); result = 95.5%
target = Hepatocyte growth factor receptor (MET, Homo sapiens, UniProt P08581); result = 98.2%
target = Cyclin-dependent kinase 1, with cyclin A (CDK1, Homo sapiens, UniProt P06493); result = 96.5%
target = Dual specificity mitogen-activated protein kinase kinase 1 (MAP2K1, Homo sapiens, UniProt Q02750); result = 94.3%
target = MAP/microtubule affinity-regulating kinase 4 (MARK4, Homo sapiens, UniProt Q96L34); result = 102%
target = Mitogen-activated protein kinase 11 (MAPK11, Homo sapiens, UniProt Q15759); result = 103%
target = Serine/threonine-protein kinase tousled-like 2 (TLK2, Homo sapiens, UniProt Q86UE8); result = 96.6%
target = cGMP-dependent protein kinase 2 (PRKG2, Homo sapiens, UniProt Q13237); result = 104%
target = G protein-coupled receptor kinase 4 (GRK4, Homo sapiens, UniProt P32298); result = 94%
target = Serine/threonine-protein kinase PAK 3 (PAK3, Homo sapiens, UniProt O75914); result = 102%

Study 3
Organism: Sarcocystis neurona
Effect on: parasite growth
Concentration: 10 µM
Time: 96 h
Setting: first screen
Relative to: untreated
Quantity: log2 fold change
SMILES = CCC(C)n1ncn(-c2ccc(N3CCN(c4ccc(OCC5COC(Cn6cncn6)(c6ccc(Cl)cc6Cl)O5)cc4)CC3)cc2)c1=O (centres unmarked); result = 0.17
SMILES = CC(C)(C)NCC(O)COc1cccc2c1CC(O)C(O)C2 (centres unmarked); result = 0.36
SMILES = Clc1ccccc1C(c1ccccc1)(c1ccccc1)n1ccnc1; result = -1.14
SMILES = OC(c1cc(C(F)(F)F)nc2c(C(F)(F)F)cccc12)C1CCCCN1 (centres unmarked); result = -0.45
SMILES = CO/N=C(\C(=O)N[C@@H]1C(=O)N2C(C(=O)O)=C(COC(N)=O)CS[C@H]12)c1ccco1; result = 0.0107
SMILES = CCOc1cc(N)c(Cl)cc1C(=O)NCC1CN(Cc2ccc(F)cc2)CCO1 (centres unmarked); result = -0.4
SMILES = CN(C)CCCSc1ccccc1NC(=O)/C=C/c1ccccc1; result = -0.42
SMILES = CCCC(CCC)C(=O)O; result = 0.3

Study 4
SMILES: COc1cc(C(=O)N2CCC(N3CCN(C)CC3)CC2)ccc1Nc1ncc2c(n1)N(C)c1ccccc1C(=O)N2C
Effect on: kinase activity
Quantity: remaining activity
target = PHK; concentration = 1 µM; result = 98 ± 3%
target = RIPK2; concentration = 1 µM; result = 103 ± 4%
target = RSK1; concentration = 10 µM; result = 36 ± 47%
target = CK1; concentration = 1 µM; result = 73 ± 3%
target = MST4; concentration = 10 µM; result = 87 ± 3%
target = JAK2; concentration = 10 µM; result = 80 ± 8%
target = PIM2; concentration = 1 µM; result = 87 ± 2%
target = p38a MAPK; concentration = 1 µM; result = 95 ± 4%
target = BRSK1; concentration = 1 µM; result = 83 ± 6%
